# Measurements of several laboratories.
# Every numbered part comes from another study and shows a few of its results, in no order. Substitutions count along the parent as printed.

# Set 1 — technique: protein binding microarray; form: double-stranded DNA, one strand shown; matrix: in vitro; concentration: not given; reference: not given; reading: higher = stronger binding
# Target: Histone acetyltransferase KAT6A, both winged helices, GST fusion (KAT6A, Homo sapiens, UniProt Q92794, residues 1-181)
# Setting: 8-mer, flanks averaged, mean of 2 arrays, mostly near background
# Residues (chain): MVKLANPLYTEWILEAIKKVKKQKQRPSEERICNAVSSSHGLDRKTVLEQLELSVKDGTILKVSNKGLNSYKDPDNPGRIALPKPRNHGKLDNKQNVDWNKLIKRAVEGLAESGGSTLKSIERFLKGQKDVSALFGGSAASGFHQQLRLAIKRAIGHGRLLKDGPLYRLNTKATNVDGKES
Strand,E-score
TCGAACCA,-0.143
AGTTGCAG,-0.164
ATCAAAGG,-0.0653
CAGTACAG,-0.129
GGAAGTAA,-0.128
ATTACTGC,-0.0626
ATCAGTGA,-0.115
GCAATAGA,-0.0279
CCAAGTCC,-0.147
ACGACGCG,0.263
CTTTGTAC,-0.172
AAATGAGC,-0.117
AGCGTCGG,0.345
CGGCGGTC,0.253

# Set 2 — technique: protein-binding microarray; form: double-stranded DNA, one strand shown; matrix: in vitro; concentration: 940 nM top; setting: 60-bp whole probe; together with: salmon DNA 0.4 mg/ml; reference: random background probes; reading: higher = stronger binding; all sequences stand within: GCCTAGCAC … GTCTTGATTCGCTTGACGCTGCTG
# Target: Interferon regulatory factor 5, full length, phosphomimetic (IRF5, Homo sapiens, UniProt Q13568-2, residues 1-514, S451D/S453D/S456D/S462D)
Strand,fitted relative affinity [z-score]
GACGAATCCAGTTTCGAGACGTGCTAG,4.57
GACGAACTGAGTATCTAGACGTGCTAG,-0.155
CACGGACTGGGTATCGGGACGTGCTAG,0.887
GATGGTTCCCTTTTCCTGACGTGCTAG,0.822
GACGGTATCGATACTGGGGACGTGCTA,9.36
TTAGGTCTCCTTATCCTTCAGTGCTAG,0.405
TTAGGTATCGACTATCGGGTAGTGCTA,5.62
TTAGATATCAGTCTCGATAAGTGCTAG,2.67
TTAGGTATCGGCTTCGGTTAGTGCTAG,5.37
GACGGTCTCGGAGTGGGGACGTGCTAG,0.24
GACGGTTTCGACTATCCGGACGTGCTA,9.56
TCAACATTGCACAATCTTACTGTGCTA,0.393
GACGGTTCCGACTTTCGGGACGTGCTA,1.01
GACGGTATCCTTCTCTTGACGTGCTAG,0.304
TCATGCATGTTTTTGACACTGTGCTAG,0.0514
GACGGTTTCAGTCTCGAGACGTGCTAG,6.24
TTAGGTATCGGACTGGTTTAGTGCTAG,3.8
CAGGAATTGAAAATTAGTGTTGTGCTA,-0.378
TTAGGTTTCGGTACTGGGTTAGTGCTA,13.2
TTCTATATTTGCTTCAGGTTGTGCTAG,0.622
TTAGAAGTGAGACTGGATTAGTGCTAG,-0.255
TTACATTTCAGTTCCGATTAGTGCTAG,1.86
TTAGGTTCGCTTTTCCTTTAGTGCTAG,0.621
CCAGCTCTTTCGTTACTTCCTGTGCTA,2.41
TTAGGTTTCGGGACGGGGTTAGTGCTA,10.8

# Set 3 — technique: DHFR PCA, deep sequencing; matrix: yeast; together with: (+)-ABA 2500 µM; reference: wild-type fitted maximum; reading: higher = stronger binding
# Target: ABI1, truncated, D143A, DHFR fusion (Arabidopsis thaliana)
# Setting: methotrexate growth selection, single substitutions
# Parent: PYL1, truncated, DHFR fusion (Arabidopsis thaliana); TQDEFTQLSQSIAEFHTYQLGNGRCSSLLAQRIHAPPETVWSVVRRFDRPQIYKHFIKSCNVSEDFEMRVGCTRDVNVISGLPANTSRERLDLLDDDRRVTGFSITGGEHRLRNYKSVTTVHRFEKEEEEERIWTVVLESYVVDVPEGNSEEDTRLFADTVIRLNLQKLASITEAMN
Substitution,relative binding score [%]
D97Q,94
T73P,77.5
L28G,67
R88A,91.5
T135I,48.3
D75N,96.3
G81M,68
R46Y,87.1
R98I,104
F5M,105
Y18R,95.1
V100M,99.3
I133C,108

# Set 4 — target: CCNB1, cyclin fold, Cln2 fusion (human); technique: yeast growth competition, sequencing; matrix: yeast; setting: strong parent motif; reference: not given; reading: higher = stronger binding
# Parent: PKN2 docking peptide (human); VSAVQKLDFSDTM; partner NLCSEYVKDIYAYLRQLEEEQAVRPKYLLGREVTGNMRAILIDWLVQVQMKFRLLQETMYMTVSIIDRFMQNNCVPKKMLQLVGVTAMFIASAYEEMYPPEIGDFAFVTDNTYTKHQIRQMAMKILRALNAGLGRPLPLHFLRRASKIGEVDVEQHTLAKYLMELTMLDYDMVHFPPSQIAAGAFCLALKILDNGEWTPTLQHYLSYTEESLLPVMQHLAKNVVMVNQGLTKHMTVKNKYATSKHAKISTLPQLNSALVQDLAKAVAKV
Substitution,normalised enrichment score
VSAVQKLDFDDTM [S10D],3.07
VSAVQKLDFSDTG [M13G],2.1
VSAVQKSDFSDTM [L7S],-0.369
VSAVQKLDNSDTM [F9N],0.0905
VSAVQKLDFSDIM [T12I],1.53
VSAVQKLDFSITM [D11I],0.198
VSHVQKLDFSDTM [A3H],1.19
VSAVQKLRFSDTM [D8R],0.755
VRAVQKLDFSDTM [S2R],1.95
VSAVQKLDTSDTM [F9T],0.141
VSAVQKLDFHDTM [S10H],1.74
VFAVQKLDFSDTM [S2F],2.15
VSAKQKLDFSDTM [V4K],0.586
VSALQKLDFSDTM [V4L],0.721
VSAVQKLDFNDTM [S10N],1.53

# Set 5 — technique: universal PBM; form: double-stranded DNA, one strand shown; matrix: in vitro; concentration: not given; reading: higher = stronger binding
# Target: Sal-like protein 4, full length isoform B (SALL4, Homo sapiens, UniProt Q9UJQ4-2, residues 1-616)
# Setting: 8-mer, flanks averaged, mean of replicates
# Construct (chain): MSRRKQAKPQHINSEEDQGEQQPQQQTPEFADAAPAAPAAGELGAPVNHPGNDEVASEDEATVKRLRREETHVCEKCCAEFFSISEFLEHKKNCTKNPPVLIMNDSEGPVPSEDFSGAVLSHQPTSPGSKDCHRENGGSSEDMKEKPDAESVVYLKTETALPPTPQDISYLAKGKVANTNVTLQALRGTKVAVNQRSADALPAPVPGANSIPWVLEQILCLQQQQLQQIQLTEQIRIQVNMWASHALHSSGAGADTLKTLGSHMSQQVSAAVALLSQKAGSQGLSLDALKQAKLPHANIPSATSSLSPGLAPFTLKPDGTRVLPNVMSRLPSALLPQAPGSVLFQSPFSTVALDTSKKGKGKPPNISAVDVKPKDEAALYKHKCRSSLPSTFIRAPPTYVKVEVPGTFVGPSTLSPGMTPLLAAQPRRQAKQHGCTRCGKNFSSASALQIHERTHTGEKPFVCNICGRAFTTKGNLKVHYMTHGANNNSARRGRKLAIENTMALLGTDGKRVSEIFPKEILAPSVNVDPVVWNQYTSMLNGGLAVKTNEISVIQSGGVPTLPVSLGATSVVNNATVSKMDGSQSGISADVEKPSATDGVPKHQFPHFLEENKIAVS
Strand,E-score
TGTGGAAA,0.234
AGCCCGGG,-0.402
AAGAACCG,-0.169
ACTCCCCT,-0.135
GATCTGGC,-0.133
CCTTAAAC,0.0101
CCCCTCAC,-0.268
AGGCACCG,-0.225
AACACGGA,-0.0412
GTTCGAAC,-0.0125
AACCGTTA,0.0723
AAATTGAT,0.287
CAACTTCC,-0.168
GTAATCAA,0.207
CGCTGCTA,-0.27
GACGCCGC,-0.374
CCCTGCGC,-0.302
CGCTGTAG,-0.275
CAGCCATG,-0.0997
AGGCCGAA,-0.127
GGCAAAAC,0.0232
CACTCACG,-0.207
AAAGTGAA,0.176
CAAAACGA,0.132
GCTTCATA,0.096

# Set 6 — technique: RNAcompete; form: RNA; matrix: in vitro; concentration: 20 nM; setting: 7-mer, probes averaged, single round; reference: mean of 7-mers; reading: higher = stronger binding
# Target: PABPC1L2, full length, GST fusion (mouse, UniProt A0ABA7IW68)
# Target sequence (chain): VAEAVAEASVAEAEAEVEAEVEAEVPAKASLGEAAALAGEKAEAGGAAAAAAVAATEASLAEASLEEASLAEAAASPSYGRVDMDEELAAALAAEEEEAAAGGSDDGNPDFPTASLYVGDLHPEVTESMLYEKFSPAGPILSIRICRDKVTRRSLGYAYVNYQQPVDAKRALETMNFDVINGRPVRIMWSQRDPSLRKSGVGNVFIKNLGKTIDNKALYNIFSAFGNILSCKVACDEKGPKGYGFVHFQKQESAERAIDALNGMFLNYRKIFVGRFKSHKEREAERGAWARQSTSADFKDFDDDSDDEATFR
Strand,7-mer Z-score
GUUAGAU,-0.168
CUUAGUA,-0.151
CACGUCA,-0.226
ACCCCCU,-0.481
ACCAAAG,0.321
GAAGCCC,-0.293
CACUUGA,-0.0736
UGGCUGG,0.133
AAAACUC,2.56
CCCCUCA,-0.262
CACUAAA,1.17
ACACGUC,-0.137

# Other studies, line by line — technique: cross-linking MS
Substance,partner,test system,setting,endpoint,result
"HSP90B1 (Homo sapiens, UniProt P14625)","CKAP4 (Homo sapiens, UniProt Q07065)",cell fractions,together with: DSSO,cross-linked residues,K161 to K355
"EPRS1 (Homo sapiens, UniProt P07814)","KHDRBS1 (Homo sapiens, UniProt Q07666)",cell fractions,together with: DSSO,cross-linked residues,S1136 to K194
"GPD2 (Homo sapiens, UniProt P43304)","IMMT (Homo sapiens, UniProt Q16891)",,hits only,interaction screen,cross-linked
"PARP1 (Homo sapiens, UniProt P09874)","BTN1A1 (Homo sapiens, UniProt Q13410)",cell fractions,together with: DMTMM,cross-linked residues,D807 to K294

# Some of these lines once more (set 4):
Substitution,normalised enrichment score
VSAVQKLDFSITM [D11I],0.198
VSAVQKLDTSDTM [F9T],0.141
VSAVQKLDFSDTG [M13G],2.1
VSAKQKLDFSDTM [V4K],0.586
VSAVQKLDFDDTM [S10D],3.07
VSAVQKLDFNDTM [S10N],1.53
VSAVQKLDFSDIM [T12I],1.53
VSAVQKLDFHDTM [S10H],1.74
VSAVQKLRFSDTM [D8R],0.755
VSAVQKSDFSDTM [L7S],-0.369
VSAVQKLDNSDTM [F9N],0.0905
VFAVQKLDFSDTM [S2F],2.15
VSALQKLDFSDTM [V4L],0.721
VSHVQKLDFSDTM [A3H],1.19
VRAVQKLDFSDTM [S2R],1.95
